Measured values gathered from unrelated publications.
Each line is one published result; not all experiments were run side by side. In brackets after ≈: the same amount, converted by molar mass.

CCn1cc(C2CC2)c2c([C@H](O)c3cnc(C(F)(F)F)c(Cl)c3)n(C)nc2c1=O  kinetic solubility (nephelometry; aqueous buffer; 30 min, pH 6.5): 80 to 160 µM (≈ 34.1 to 68.3 µg/mL)
CCOC(=O)[C@@]12C[C@@H]1[C@@H](n1ccc3c(NC)nc(C#Cc4ccc(Cl)s4)nc31)[C@H](O)[C@@H]2O  concentration (male Sprague-Dawley rat, plasma; oral, 3 mg/kg, 1 h): 65.9 ng/mL
O=C(c1ccc(F)cc1)C1CCN(CCn2c(=O)[nH]c3ccccc3c2=O)CC1  compound remaining (metabolic stability; monkey, liver microsomes; 30 min): 37.7%
COc1ccc2c(=O)n(C)c(-c3ccccc3)nc2c1  concentration (male Sprague-Dawley rat, spleen; oral, 30 mg/kg, 2 h, single dose): 25.9 ng/g
O=C1CC[C@H](N2Cc3cc(N4CCN(CC5CCN(c6ccc([C@@H]7c8ccc(O)cc8CC[C@@H]7c7ccccc7)cc6)CC5)CC4)ccc3C2=O)C(=O)N1  Vd (female Sprague-Dawley rat, plasma; intravenous, 5 mg/kg, fed): 3.06 L/kg
Cn1nc2c(=O)n(C3CC3)cc(C3CC3)c2c1Cc1ccc(C(F)(F)F)nc1  kinetic solubility (nephelometry; aqueous buffer; 30 min, pH 6.5): 65 to 130 µM (≈ 25.2 to 50.5 µg/mL)
Cc1noc(C)c1Cn1cc(N2C(=O)CN(Cc3cccc(O)c3)C2=O)cn1  concentration (male Sprague-Dawley rat, plasma; intravenous, 1 mg/kg, 4.8 min): 619 ng/mL
CCn1cc(Cl)c2c(Cc3ccc(N4CCOCC4)nc3)n(C)nc2c1=O  kinetic solubility (nephelometry; aqueous buffer; 30 min, pH 6.5): 65 to 130 µM (≈ 25.2 to 50.4 µg/mL)
O=C(COc1ccc(Cl)cc1)NC12CC(c3nnc([C@H]4C[C@@H](OC(F)(F)F)C4)o3)(C1)C2  Tmax (human, plasma; oral, 15 mg, single dose, fasted, healthy volunteers): 8.04 h
COc1ccc([C@@H](O)c2cc(-c3ncnc4cc(N5CCOCC5)ccc34)c(F)cc2Cl)nn1  Tmax (human, plasma; oral, 300 mg, single dose, patients): 1.51 h
Cn1nc2c(=O)n(C3CC3)ccc2c1[C@](O)(c1ccc(F)c(Cl)c1)C(F)(F)F  kinetic solubility (nephelometry; aqueous buffer; 30 min, pH 6.5): 20 to 40 µM (≈ 8.32 to 16.6 µg/mL)
COc1cccc(-c2n[nH]c(SCc3ccccn3)n2)c1OC  concentration (female Sprague-Dawley rat, plasma; oral, 100 mg/kg, 30 min, single dose): 98300 ng/mL
O=c1nc(N2CCN(CC3CCCCC3)CC2)sc2c([N+](=O)[O-])cc(C(F)(F)F)cc12  concentration (CD-1 mouse, plasma; intravenous, 10 mg/kg, 1 h): 2090 ng/mL
CCn1cc(C2CC2)c2c(CN3CCC(F)(F)CC3)n(C)nc2c1=O  kinetic solubility (nephelometry; aqueous buffer; 30 min, pH 6.5): 50 to 100 µM (≈ 17.5 to 35 µg/mL)
Cc1c(C(=O)O)ccc2c3n(nc12)[C@@H]1[C@H](C3)N(CC2CC2)[C@@]2(C(=O)Nc3cc(Cl)ccc32)[C@H]1c1cccc(Cl)c1F  Vd (male rat, plasma; intravenous): 0.28 L/kg
Cc1nc(-c2cnc(NC(C)C)n(C)c2=O)ccc1Oc1ccnc(-c2cnn(C)c2)c1  Tmax (female mouse, plasma; oral, 3.75 mg/kg, single dose): 6 h

Repeated from above:
Cc1noc(C)c1Cn1cc(N2C(=O)CN(Cc3cccc(O)c3)C2=O)cn1  concentration (male Sprague-Dawley rat, plasma; intravenous, 1 mg/kg, 4.8 min): 619 ng/mL
